Assay results pooled from the literature.
Lines come from different studies, so protocols differ. Several values in a cell are separate wells, animals, samples, runs or records. ± gives the spread as reported.

`CC[C@@H](C)[C@@H](NC(=O)[C@@H](Cc1ccc(O)cc1)NC(=O)[C@H]1CCCN1C(=O)[C@@H](CCCNC(=N)N)NC(=O)[C@H](N)Cc1c[nH]cn1)C(=O)N[C@H](C)C(=O)N[C@H](Cc1c[nH]cn1)C(=O)N[C@H](CCCNC(=N)N)C(=O)N[C@H](CCCCNC(=O)c1cccc(S(=O)(=O)F)c1)C(=O)N[C@H](Cc1ccc(O)cc1)C(=O)N[C@H](CO)C(=O)N[C@H](Cc1ccccc1)C(N)=O` gave a remaining compound of 109% and 110% (10% human serum; 72 h).
For `CC[C@H](C)[C@H](NC(=O)[C@H](Cc1ccccc1)NC(=O)[C@H](CCC(=O)O)NC(=O)[C@H](CCCNC(=N)N)NC(=O)[C@H](C)NC(=O)[C@H](C)NC(=O)[C@H](CCC(N)=O)NC(=O)[C@H](CCC(=O)O)NC(=O)[C@H](CCC(=O)O)NC(=O)[C@H](CC(C)C)NC(=O)[C@H](Cc1ccc(O)cc1)NC(=O)[C@H](CO)NC(=O)[C@H](CO)NC(=O)[C@@H](NC(=O)[C@H](CC(=O)O)NC(=O)[C@H](CO)NC(=O)[C@@H](NC(=O)[C@H](Cc1ccccc1)NC(=O)[C@@H](NC(=O)CNC(=O)[C@H](CCC(=O)O)NC(=O)[C@H](C)NC(=O)CCc1cnc[nH]1)[C@@H](C)O)[C@@H](C)O)C(C)C)C(=O)N[C@@H](C)C(=O)N[C@@H](Cc1c[nH]c2ccccc12)C(=O)N[C@@H](CC(C)C)C(=O)N[C@H](C(=O)N[C@@H](CCCNC(=N)N)C(=O)NCC(=O)N[C@@H](CCCNC(=N)N)C(=O)N[C@@H](CCCCNC(=O)COCCOCCNC(=O)COCCOCCNC(=O)CC[C@H](NC(=O)CCCCCCCCCCCCCCCCC(=O)O)C(=O)O)C(=O)NCC(=O)NCC(=O)N[C@@H](CO)C(=O)N[C@@H](CCSC)C(=O)N[C@H](C(=O)N[C@@H](CCCCNc1c(NCCCCCN(O)C(=O)CCC(=O)NCCCCCN(O)C(=O)CCC(=O)NCCCCCN(O)C(C)=O)c(=O)c1=O)C(=O)O)C(C)C)C(C)C` [zirconium-89 labelled], the tissue uptake was 0.101 %ID/g (ex vivo gamma counting; male Sprague-Dawley rats, stomach; intravenous, 5 MBq (1 nmol), 72 h).
`O=C(Nc1ccccc1)C1CCN(C(=O)Oc2cccnc2)CC1`: “adverse event Malaise” 7.1% (healthy women; oral, 60 mg, 7 days).
`Cl.Cl.[2H]C([2H])(CN)SSC([2H])([2H])CN` — result for toxicity signs: “not toxic” (C57BL/6J mouse, CDAA-HFD MASH model; oral gavage, 200 mg/kg once daily, 2 weeks).
`COc1cccc2c1CCCC2CCCN1CCN(C2CCCCC2)CC1` (stereo not shown) gave a Tmax of 15 min (CD-1 mouse, male, lung; intraperitoneal, 3 mg/kg).
The blood chemistry of `CC(C)Nc1ccnc(Nc2cccc(-c3cccnc3)c2)n1` is reported as 3.3 g/dL (measured: albumin; mouse, blood; intraperitoneal, 3 mg/kg).
The AUC(0-t) of `Nc1ccc2cc3ccc(N)cc3nc2c1` is reported as 730 ng·h/mL (male CD-1 mouse, plasma; intravenous, 15 mg/kg).
Under “grade 3 sinus arrhythmia”, `COc1cc2c(Oc3ccc4[nH]c(C)cc4c3F)ccnc2cc1OCC1(N)CC1` is recorded as 0% (paediatric recurrent refractory sarcoma; concentration not given, whole group).
For `CN1CCN(c2ccc(Nc3nccc(-c4ccc5ccccc5c4)n3)cc2C(F)(F)F)CC1`, the toxicity was 0% (zebrafish embryos; 50 µM, 5 d).
`C[C@@H](NC(=O)N1C(=O)[C@H](Cc2ccnc(N)c2)[C@H]1C(=O)O)C1CCCCC1`: “incidence of diarrhea” 12.5% (healthy adult Chinese volunteers; continuous intravenous infusion, 0.6 mg/kg/h, 5-day infusion, CTCAE 5.0 grading).
`CCN(CCO)CCCC(C)Nc1ccnc2cc(Cl)ccc12` (stereo not shown) — result for “white cell decrease patients”: 33% (newly diagnosed glioblastoma patients; oral, 200 mg/dose, grade 4, added: radiotherapy and temozolomide).
Under “elevated AST adverse events”, `Nc1nc2cc(-c3ccc4ncc(C(=O)N5CCOCC5)n4c3)ccc2o1` is recorded as 42% (human, advanced solid tumours; 100–300 mg once daily).
The CLint of `CC(C)=CC1C(C(=O)OC(C#N)c2cccc(Oc3ccccc3)c2)C1(C)C` (stereo not shown) is reported as 1.32 mL/min/mg protein (pooled human liver microsomes).
For `C[C@]1(CO)Cc2ncn(-c3ccc(C#N)c(Cl)c3)c2C(=O)O1`, the AUC(0-inf) was 7.11 µM·h (healthy Japanese adults, plasma; 20 mg single dose).
The dose-normalised AUC(0-inf) of `Cc1nc([C@@](C)(CC2CC2)NC(=O)c2cc(OCC(F)(F)F)c(C3CC3)cn2)no1` is reported as 729 kg·ng·h/mL/mg (C57BL/6 mice; oral, 2.8 mg/kg).
For `CC(=O)c1c(C)c2cnc(Nc3ccc(C4CCN(CCS(C)(=O)=O)CC4)cn3)nc2n(C2CCCC2)c1=O`, the clearance was 2340 mL/min (human, dose-escalation trial, plasma; oral, 50 mg twice daily, day 21, multiple doses).
`c1ccc2c(c1)c1cccc3ccc4cccc2c4c31` has a log K(PDMS-water) of 5.12 ± 0.02 (fresh water; 12 (unit not given), 20 °C, S100 sampler, 100 µm).
`CC(C)C[C@H](NC(=O)[C@H](CCC(N)=O)NC(=O)[C@H](CO)NC(=O)[C@H](CO)NC(=O)[C@H](CCCNC(=N)N)NC(=O)[C@H](CCCNC(=N)N)NC(=O)[C@H](CCCNC(=N)N)NC(=O)[C@H](CC(C)C)NC(=O)[C@H](Cc1c[nH]cn1)NC(=O)[C@@H](NC(=O)[C@H](CCCCN)NC(=O)[C@H](CCCNC(=N)N)NC(=O)[C@H](CCCNC(=N)N)NC(=O)[C@H](CCCNC(=N)N)NC(=O)[C@H](CCC(N)=O)NC(=O)[C@H](CCCNC(=N)N)NC(=O)[C@H](CCCNC(=N)N)NC(=O)[C@H](CCCCN)NC(=O)[C@H](CCCCN)NC(=O)[C@H](CCCNC(=N)N)NC(=O)CNC(=O)[C@@H](N)Cc1ccc(O)cc1)[C@@H](C)O)C(=O)N[C@@H](CCCCN)C(N)=O` — result for centre time: “no effect” (open field test; rat; intra-CA1 bilateral, dose not given, 5 min).
`CC(C)C[C@@H]1NC(=O)CNC(=O)[C@H](CC(N)=O)NC(=O)[C@H](CCCNC(=N)N)NC(=O)[C@H]([C@@H](C)O)NC(=O)[C@@H]2CSSC[C@@H]3NC(=O)[C@H]([C@@H](C)O)NC(=O)CNC(=O)CNC(=O)[C@H](C(C)C)NC(=O)[C@@H]4CSSC[C@H](NC(=O)[C@H]([C@@H](C)O)NC(=O)[C@H](CSSC[C@H](NC(=O)[C@H](C(C)C)NC(=O)[C@@H]5CCCN5C1=O)C(=O)N[C@@H](CCCCN)C(=O)N[C@@H](CCC(=O)O)C(=O)N[C@@H]([C@@H](C)O)C(=O)N4)NC(=O)CNC(=O)[C@@H]1CCCN1C(=O)[C@H]([C@@H](C)O)NC(=O)[C@H](CC(N)=O)NC3=O)C(=O)N[C@@H](CO)C(=O)N[C@@H](Cc1c[nH]c3ccccc13)C(=O)N1CCC[C@H]1C(=O)N[C@@H](C(C)C)C(=O)N2` has a remaining peptide of 25.1 ± 3.8% (HPLC; ammonium bicarbonate 0.1 M; 180 µM, 14 days, pH 9.0, 37 °C, deamidation stability).
`N[C@@H]1c2ccccc2OC12CCN(c1cnc3c(N4CCCc5ncccc54)n[nH]c3n1)CC2` — result for “TEAE causing dose reduction”: 14.3% (advanced solid tumour patients; oral, 100 mg once daily).
`CCC[C@@](N)(CO)CCc1ccc(OCCCCCC(C)C)cc1` has an AUC(0-inf) of 20.7 µM·h (male hound dog, plasma; oral, 20 mg/kg, capsule, fasted, geometric mean).
`CC[C@H](C)CCCCC(=O)N[C@@H](CCN)C(=O)N[C@H](C(=O)N[C@@H](CCN)C(=O)N[C@H]1CCNC(=O)[C@H]([C@@H](C)O)NC(=O)[C@H](CCN)NC(=O)[C@H](CCN)NC(=O)[C@H](CC(C)C)NC(=O)[C@@H](Cc2ccccc2)NC(=O)[C@H](CCN)NC1=O)[C@@H](C)O` — result for “plasma concentration at 6 h”: 4570 ng/mL (critically ill patients, plasma; intravenous, dose not given, 6 h, steady state, High AUC group, median).
For `CO[C@H]1C[C@@H]2CC[C@@H](C)[C@@](O)(O2)C(=O)C(=O)N2CCCC[C@H]2C(=O)O[C@H]([C@H](C)C[C@@H]2CC[C@@H](OC(=O)NCCOCCOCCOCCOCCOCCOCCOCCOCCC(=O)N3CCc4cc(Cn5nc(-c6ccc7oc(N)nc7c6)c6c(N)ncnc65)ccc4C3)[C@H](OC)C2)C[C@@H](O)[C@H](C)/C=C(\C)[C@@H](O)[C@@H](OC)C(=O)[C@H](C)C[C@H](C)/C=C/C=C/C=C/1C`, the TRAE incidence was 0% (phase 1 dose escalation, measured: headache; advanced solid tumour patients; intravenous, 16 mg weekly, grade ≥3).
`COc1cc2c(cc1OC)CN(CCc1ccc(NC(=O)c3cccc4c(=O)c5cccc(OC)c5[nH]c34)cc1)CC2` — result for “elimination rate constant”: 2.02e-05 s⁻¹ (CD-1 mouse, male, lung; intraperitoneal, 10 mg/kg).
For `c1ccc2cc3c(cc2c1)-c1cccc2cccc-3c12`, “literature range of log K” read 4.85 to 5.86 log units (PDMS-water partitioning; PAH compilation).
`COc1ncccc1-c1cnn2ccc(N3CCN(C(=O)OC(C)C)CC3)nc12` has a drug concentration of 3.8 µM (rat, CCI mechanical allodynia model, brain; oral, 10 mg/kg, 240 min).
`CN1CC[C@@H](c2c(O)cc(O)c3c(=O)cc(-c4ccc(C(F)(F)F)cc4Cl)oc23)[C@@H]1CO`: “adverse event incidence” 25% (measured: Nausea; relapsed or refractory haematological malignancies; oral, dose not given, all grades).
With `CC(C)C[C@@H]1NC(=O)CNC(=O)[C@H](CC(N)=O)NC(=O)[C@H](CCCNC(=N)N)NC(=O)[C@H]([C@@H](C)O)NC(=O)[C@@H]2CSSC[C@@H]3NC(=O)[C@H]([C@@H](C)O)NC(=O)CNC(=O)CNC(=O)[C@H](C(C)C)NC(=O)[C@@H]4CSSC[C@H](NC(=O)[C@H]([C@@H](C)O)NC(=O)[C@H](CSSC[C@H](NC(=O)[C@H](C(C)C)NC(=O)[C@@H]5CCCN5C1=O)C(=O)NCC(=O)N[C@@H](CCC(=O)O)C(=O)N[C@@H]([C@@H](C)O)C(=O)N4)NC(=O)CNC(=O)[C@@H]1CCCN1C(=O)[C@H](CCCCN)NC(=O)[C@H](CC(N)=O)NC3=O)C(=O)N[C@@H](CO)C(=O)N[C@@H](Cc1c[nH]c3ccccc13)C(=O)N1CCC[C@H]1C(=O)N[C@@H](C(C)C)C(=O)N2` the remaining peptide was 95.3 ± 0.3% (HPLC; ammonium bicarbonate; 180 µM, 7 days, pH 9.0, 25 °C, deamidation stability).
Under “fluorescence quantum yield”, `CC[C@H](C)[C@H](NC(=O)[C@H](Cc1ccc(O)cc1)NC(=O)[C@@H]1CCCN1C(=O)[C@H](CCCNC(=N)N)NC(=O)[C@@H](N)CCCNC(=N)NC(=O)NCCOCCOCCNC(=O)CCCCCN1\C(=C/C=C/C=C/C2=[N+](CCCCS(=O)(=O)[O-])c3ccccc3C2(C)C)C(C)(C)c2ccccc21)C(=O)N[C@@H](CC(C)C)C(=O)O` is recorded as 55% (PBS with 1% BSA; reference: cresyl violet perchlorate).
Under “subjects with Nausea”, `C=C(C)[C@@H]1CCC(C)=C[C@H]1c1c(O)cc(CCCCC)cc1O` is recorded as 6% (human; 750 mg, trial 17074, added: rifampicin 600 mg).
For `COc1ncnn2ccc(-c3cnc4nc(C)n(Cc5nnc([C@@H](C)F)o5)c4c3)c12`, “incidence of any adverse events (all grades)” read 100% (human patients; oral, dose not given).

Excerpt of the above:
The AUC(0-t) of `Nc1ccc2cc3ccc(N)cc3nc2c1` is reported as 730 ng·h/mL (male CD-1 mouse, plasma; intravenous, 15 mg/kg).
Under “grade 3 sinus arrhythmia”, `COc1cc2c(Oc3ccc4[nH]c(C)cc4c3F)ccnc2cc1OCC1(N)CC1` is recorded as 0% (paediatric recurrent refractory sarcoma; concentration not given, whole group).
For `CN1CCN(c2ccc(Nc3nccc(-c4ccc5ccccc5c4)n3)cc2C(F)(F)F)CC1`, the toxicity was 0% (zebrafish embryos; 50 µM, 5 d).
